Assay results of several laboratories.
Each numbered part is a random draw from the data of one study; scales do not carry over between parts. Changes are numbered by the printed parent chain.

Set 1
Target: Histone acetyltransferase KAT6A, winged helix 1, GST fusion (KAT6A, Homo sapiens, UniProt Q92794, residues 1-85)
Method: protein binding microarray
Molecule type: double-stranded DNA, one strand shown
Matrix: in vitro
Concentration: not given
Notes: 8-mer, flanks averaged, mean of 2 arrays, mostly near background
Reference: not given
Direction: higher = stronger binding
Quantity: E-score
Target sequence (chain): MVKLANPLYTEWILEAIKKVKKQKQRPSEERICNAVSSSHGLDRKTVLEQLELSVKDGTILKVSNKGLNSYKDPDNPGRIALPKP
AAATCGAC: 0.048
ACTGGTCG: -0.0541
GAGGATCA: -0.119
CGACGACA: -0.134
ATATCCAT: -0.177

Set 2
Target: Interferon regulatory factor 5, full length, phosphomimetic (IRF5, Homo sapiens, UniProt Q13568-2, residues 1-514, K96S/S451D/S453D/S456D/S462D)
Method: protein-binding microarray
Molecule type: double-stranded DNA, one strand shown
Matrix: in vitro
Concentration: 250 nM
Notes: 60-bp whole probe
Together with: salmon DNA 0.4 mg/ml
Reference: random background probes
Direction: higher = stronger binding
Quantity: log fluorescence
Constant ends, left off below: GCCTAGCAC … GTCTTGATTCGCTTGACGCTGCTG
TTTGCATTGCTTCTATAGGCGTGCTAG: 0.578 z-score
TTAGAACTGGGGACTGGATTTGTGCTA: -0.198 z-score
CACGAACTGGGGTATCGAGACGTGCTA: 0.0403 z-score
TCAGTTTTCAGTCCTGGACTGTGCTAG: 1.66 z-score
AACGAACTGAGACTGGAGACGTGCTAG: -0.217 z-score
TTATATCTCAGTTTCGATTAGTGCTAG: 9.53 z-score
TTTTTTTTACTTCGGGTGACGTGCTAG: 1.27 z-score
TTAGAACAGAGTATCGATTAGTGCTAG: 5.3 z-score

Set 3
Target: CCND2, cyclin fold, Cln2 fusion (human)
Method: yeast growth competition, sequencing
Matrix: yeast
Notes: strong parent motif
Reference: not given
Direction: higher = stronger binding
Quantity: normalised enrichment score
Parent: E2F1 docking peptide (human); PPVKRRLDFETDH
D12Y: 2.03
R5E: 0.105
R5Y: 0.366
D8L: 1.43
V3N: -0.0794

Mixed results
PhoQ, residues 284 288 289 292 302 303 GLASVI — fold induction (PhoP, residues 12 14 15 18 19 TTLRV (Escherichia coli, UniProt P23836); Sort-seq, item: YFP reporter; E. coli; PhoQ-PhoP variant library, together with: 10 µM Mg2+; reference: high Mg2+ state, higher = stronger signaling): 1.95

Some of these lines once more (set 1):
CGACGACA: -0.134
AAATCGAC: 0.048
ACTGGTCG: -0.0541
